Published values pooled from the literature.
Every numbered part comes from another study and shows a few of its results, in no order.

Series 1
Target: RING finger protein unkempt homolog, zinc fingers 1-6, GST-SBP tag (UNK, Homo sapiens, UniProt Q9C0B0, residues 30-357)
Method: RNA Bind-n-Seq
Form: RNA
Medium: in vitro
Concentration: not given
Setting: RNA with constant flanks, human-mouse chimeric sites, ends assumed
Reference: input RNA pool
Reading: higher = stronger binding
Construct (chain): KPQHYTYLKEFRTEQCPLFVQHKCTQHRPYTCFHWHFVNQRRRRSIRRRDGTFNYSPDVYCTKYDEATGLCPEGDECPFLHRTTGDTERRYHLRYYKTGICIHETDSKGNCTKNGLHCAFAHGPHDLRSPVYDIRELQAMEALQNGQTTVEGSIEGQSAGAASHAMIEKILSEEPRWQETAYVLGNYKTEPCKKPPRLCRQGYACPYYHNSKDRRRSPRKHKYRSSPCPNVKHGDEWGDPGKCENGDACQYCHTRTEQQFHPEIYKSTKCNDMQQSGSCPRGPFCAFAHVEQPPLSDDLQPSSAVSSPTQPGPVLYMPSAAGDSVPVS
| Oligonucleotide | bound/input enrichment [ratio] |
| --- | --- |
| GGGAGUUCUACAGUCCGACGAUCUAAGUUAUUUUGUACAGCUUUGUAAAUUCUUAACAUUUUUAUAUUGCCAUGUUUAUUUUGUUUGGGUAAUUUGGUUCAUACAUGGCCUAGCUAAGGUACAUCUUUCAUUUUUCAGUAAUUCAACAGAGGAUUGAGCAUCA | 3.54 |
| GGGAGUUCUACAGUCCGACGAUCAUGGAACAUUUCGAUGCGUCACUCAGUACCUAUUUCAAGGCCUUCCUAGGCCCUCGAGAUACAAGAGUAAAAGGAUGGUUCCUCCUGGACAAUUACAUCCCUACGUUUGUCUGUUCUGUUCAACAGAGGAUUGAGCAUCA | 0.0871 |
| GGGAGUUCUACAGUCCGACGAUCGAUCAUGAACCACCAUCAGAAAUGAAGAUGAGAUUACCCAGACGAGCCAAAACAGCUGCGCUACAGAAAAGUAAACUUAACCUUGCAGAGUUCCUUAAAUGAAGAUCUAAGUUAGGAAGCCAACAGAGGAUUGAGCAUCA | 0.383 |
| GGGAGUUCUACAGUCCGACGAUCCUGAGGAUACCACUGAAGAGACCUUAAAAGAAUCAUUUGAGGGCUCUGUUCGUGCAAGAAUAGUCACUGAUCGGGAAACUGGUUCUUCCAAAGGGUUUUGGUUUUGUGACUUUAAUAGUGCAACAGAGGAUUGAGCAUCA | 0.317 |

Series 2
Target: Histone acetyltransferase KAT6A, winged helix 1, GST fusion (KAT6A, Homo sapiens, UniProt Q92794, residues 1-85)
Method: protein binding microarray
Form: double-stranded DNA, one strand shown
Medium: in vitro
Concentration: not given
Setting: 8-mer, flanks averaged, mean of 2 arrays, mostly near background
Reference: not given
Reading: higher = stronger binding
Target sequence (chain): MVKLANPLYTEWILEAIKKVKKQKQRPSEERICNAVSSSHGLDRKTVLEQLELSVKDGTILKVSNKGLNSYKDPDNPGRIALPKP
| Oligonucleotide | E-score |
| --- | --- |
| CCATCTAC | -0.0648 |
| GCCTGCGA | -0.108 |
| CACACGGG | 0.205 |
| CTGAGTGA | -0.0653 |

Series 3
Target: Prothrombin, mature alpha-thrombin (F2, Homo sapiens, UniProt P00734)
Method: aptamer microarray, sandwich
Form: DNA with 2'F-ANA
Medium: in vitro
Concentration: 200 nM
Setting: whole 15-mer aptamer, many near background
With: Cy3 exosite-II aptamer, 400 nM
Reading: higher = stronger binding
Oligonucleotide: GGTTGGTGTGGTTGG
| Modification | mean fluorescence intensity |
| --- | --- |
| 2'F-ANA at 2 4 6 7 8 9 10 11 12 | 149 a.u. |
| 2'F-ANA at 1 3 7 8 9 12 14 | 152 a.u. |
| 2'F-ANA at 6 7 8 9 12 13 14 15 | 216 a.u. |
| 2'F-ANA at 2 7 9 11 12 13 14 | 168 a.u. |
| 2'F-ANA at 3 4 5 7 9 10 11 13 | 59.3 a.u. |

Further values, each from its own experiment
| Substance | target | test | test system | setting | how to read | quantity | result |
| --- | --- | --- | --- | --- | --- | --- | --- |
| PhoQ, residues 284 288 289 292 302 303 GASLAW | PhoP, residues 12 14 15 18 19 LYHSL (Escherichia coli, UniProt P23836) | Sort-seq, item: YFP reporter | E. coli | PhoQ-PhoP variant library, with: 10 µM Mg2+ | reference: high Mg2+ state, higher = stronger signaling | fold induction | 3.32 |

Some of these lines once more (series 1):
| Oligonucleotide | bound/input enrichment [ratio] |
| --- | --- |
| GGGAGUUCUACAGUCCGACGAUCUAAGUUAUUUUGUACAGCUUUGUAAAUUCUUAACAUUUUUAUAUUGCCAUGUUUAUUUUGUUUGGGUAAUUUGGUUCAUACAUGGCCUAGCUAAGGUACAUCUUUCAUUUUUCAGUAAUUCAACAGAGGAUUGAGCAUCA | 3.54 |
